Published values of several laboratories.
Each numbered part is a random draw from the data of one study; scales do not carry over between parts.

Series 1 — technique: RNA Bind-n-Seq; molecule type: RNA; medium: in vitro; tested at: not given; relative to: input RNA pool; direction: higher = stronger binding
Target: RING finger protein unkempt homolog, zinc fingers 1-6, GST-SBP tag (UNK, Homo sapiens, UniProt Q9C0B0, residues 30-357)
Chain of UniProt Q9C0B0 (30-357, looked up): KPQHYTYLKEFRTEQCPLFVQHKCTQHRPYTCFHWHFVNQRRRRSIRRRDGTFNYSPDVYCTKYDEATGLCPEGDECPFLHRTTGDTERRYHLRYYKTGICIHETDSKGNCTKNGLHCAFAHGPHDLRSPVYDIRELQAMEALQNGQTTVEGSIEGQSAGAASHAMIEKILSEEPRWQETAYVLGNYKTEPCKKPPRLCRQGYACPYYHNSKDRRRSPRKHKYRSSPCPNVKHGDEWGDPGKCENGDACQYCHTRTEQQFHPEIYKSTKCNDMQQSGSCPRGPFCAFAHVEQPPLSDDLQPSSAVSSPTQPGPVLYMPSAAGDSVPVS
Notes: RNA with constant flanks, human and mouse sites, ends assumed
All sequences stand within: GGGAGUUCUACAGUCCGACGAUC … CAACAGAGGAUUGAGCAUCA
Sequence | bound/input enrichment
CCUGGCCCCAGCAGCGGCGGCGGCGAGGCCCUGCGGAGCCCGCCAGCGCCCUCUCGGCCUCUUCACUUCUCUGACCGCGGUGUCCGGGACUACGUGAGAACCAUGAGUGGCAACAACUUG | 0.106 ratio
AAAGGGAAAUCAGUCCGUGUUCAUGUACAGUUUUUUGAUGACAGCCCAACAAGGGGCUGGGUUAGCAAAAGGCUUUUAAAGCCAUAUACAGGUUCAAAAUCAAAGGAAGCCCAGAAGGGA | 0.321 ratio
GAGUUCCCAGAGAAUGUACUUUUGCUUUGUCAUACUUAUCCUUGUUAUAUUUAAACAAUCUAGUACCCAAAAAAUGUGGGCCGUACUUUCUAGUGAGUCUAAGGAAAAGUCAUCUUUGAU | 0.526 ratio
ACUAAAUAGCAGGCACUUGAAAAUGGGUGUGUUUUCUUCCAUUGUCGUCUUUUCUAUUGAGGGUUGGGAUUUGGGUGGGAGAGGAAAGCAAAUUUUAUUUUCUUGACUAUAAAUUUGUUA | 0.796 ratio
ACACAGCAGGGUGAAGUCAAGAUUCCUGACCCACCCAAAAGUAGAGAGACAGCCACGUCAAGUGCUUGCCGGGCGGCUUACCAAGCGGCCAUCCGAGGCGUGGGUAGUGCCCAGAGCCGU | 0.128 ratio
GACAUCAAUUGCUGCAACUGAACUUGAAGAUGAUGACGAUGACUAUUCAUCAUCUACGAGUUUGCUUGGUCAGAAGAAGCCAGGAUAUCAUGCCCCUGUGGCAUUGCUUAAUGAUAUACC | 0.114 ratio
GAGACCUUUUCCAGUUAUAUCAGUGUUCACAAUGACAGCAAUCAAGUUGUAAAAGAUAUAUUGGUGAAGGCGGAUCUGCAGACGAGUUCUCAGCGUUUAAACCUUUCAGCCUCCAAUGCU | 0.226 ratio
CAAGGCAUCUGUCCUGAAAGCUGCUAAUCUAUGGUCUAGUGAAUUUAUAUUAUAUGCAGAUAGUAAUGAACUGGGAGAUCAAUGAACAGCAAGGGUGAUACCACAUUGCAAAAUGGAAGC | 0.365 ratio
UUAGGCACAGCUGACAUGGCCACUUUCAUGGUCAAUUCACUAUAUAUGAUGAAGACAACAUUAGCUCUAUUUGAAUUCACUGACAGACGUCUGGAAAUGCUACAGUUUCAGAUCGAAGCA | 1.04 ratio
UCUCUUGCUACUUGCCAGUUAUCUGAGCCAUUAUUGUGGUUCAUUUUGAGAGUAUUGGAUACUAGUGAUGCCUUGAAAGCAUUUCAUGAUAUGGGUGGUGUUCAGCUCAUAUGCAAUAAU | 0.297 ratio
CUUCCUAAUAAAGUGCCAUACUCUUUUCUACAACGCAUGUUAAAAAGAGGAAAAGAGGCUCCUUUGAUCGCUGAUAAUCAUCUUGAGAAUGUUUGUUUAAGGACUCCAGCAGAAGAUGAG | 0.115 ratio

Series 2 — technique: RNA Bind-n-Seq; molecule type: RNA; medium: in vitro; tested at: 365 nM; relative to: no-protein control; direction: higher = stronger binding
Target: RNA binding protein fox-1 homolog 2, RRM domain, GST-SBP tag (RBFOX2, Homo sapiens, UniProt O43251-10, residues 100-194)
Notes: natural RNA segment, single round, ends assumed
All sequences stand within: GGGAGUUCUACAGUCCGACGAUC … UGGAAUUCUCGGGUGCCAA
Target sequence (chain): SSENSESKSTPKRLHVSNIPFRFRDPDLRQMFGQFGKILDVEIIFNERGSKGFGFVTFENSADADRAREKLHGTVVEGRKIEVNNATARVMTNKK
Sequence | RBNS enrichment (R)
CACAGGUGUGUGCAGUUGUGAAGAUCUCCAGGGAGACUCCAUCUUACCCUCCCCUUGUACUAAGAGCACAAGACACAGGACUCACAGAUUGCUUGUUCUCCCCUAUAAAG | 0.414
UGUGACGUCUCUUUGUUAACCUAAGUAUAUCUAUUUUCGGCAAUAAGGUAAGGACGGCCGUGUUUUGAGGGUCUUCCUUUCCUAUGAGUGCUUUUUCUUUUCUUCUGUUC | 0.601
CAGUAUUUAUUUUUACUGGGUGAGGAUUUUUCAACUUAACGUUUUAGGACUUAACCAAAUAACCAGUCCAUGAAUAAGCAACCCCAUUACCACAGACAGUACCCACGCUA | 0.529
GGAUAUUUGGGUGGGACAGACAGAAGACACACAGCUGCCUGUUCUCUCCUGCCCAUCAUGUUUGGCCCACUAGAUGAAGCUGUACUCAGCAAUUUAGGGAAUGUAACCCU | 0.332
UUGAUAGCAUAGACUGGUCACCCUGGACGUGCUUCAAGGUACUGUUCCCACUGAGCCUGUGCUUGCAUGACUACAUUGAGGAGAGAGAUGGUACCGGGGGUGGGGCUGUC | 7.98
CUGUUGCUAGCCACGUGGGAAGCUCAUCUUUCCCAGCAUCUACCCUGCUCUGAAAAUAGGUGCCCAGCACCCCACCGCUGCCUGCACAUGCUUCUUAGCGCUGACUUCCA | 0.403
GUGUGAUAAACCAUAUGUAGUUUAGUCUUUCUGUGGAGAGGCAGUGGUUGGGGCAUUUUUAAAUGGCUGGCUACACUUGUUUUCCCUCAUGAUAAUUUGUCAUAACUCAG | 0.743
GACGUUUUGACGAUGAGGAAAGGAGAUGCUCAGAGAGAGAGAGAUCAUGUGUUGUGAGUCAGAUCACACAGUCGAUAGGAUCAGUAUUUCAAUUCCAGAGCCCCUCCACU | 0.276
GCCCUGGGGCUCAUCAUGAUGCUUUCCUGGAUCUGUUGCUUCAUCUGCAAGCUGAGGGUGUUUGUUCUAGAUGAGUGUCUCAGGCCACCGGCAACUGCAUGUACCUCCUC | 4.05
GUCCGGCACAGCUGCGGUCACCAAAGCAGGUGCUGGCCCUCGGACCUGAGAGCCCAGCCAGGGCCCAUGUGGUCUGCAAAUGGGAGCGGCUGUUUUUGAACACGGGGUCA | 0.257
AAUUCUAGAAGCUCUUUAAAAGGGAAGUUUUCCUUCUUCUCCAAUUAUAGGAGUUGAUUUUUACUUUGCAAAGUGGCUCGGUCCUCAUGAGCAUCUGCAUGUUGACUCUU | 4.21
GCCCCUCCCAAAGCGCCGGCCGACUCGCUGUCUCGCUGGGGACUCUUUCAGCCCUCGCGCCCGCCCGUUUGGGAGGAGAAGUCUCUAUGCAAUUGGCCCCGGCCCCUCCA | 0.316

Series 3 — technique: protein-binding microarray; molecule type: double-stranded DNA, one strand shown; medium: in vitro; tested at: 250 nM; notes: 60-bp whole probe; added: salmon DNA 0.4 mg/ml; relative to: random background probes; direction: higher = stronger binding; all sequences stand within: GCCTAGCAC … GTCTTGATTCGCTTGACGCTGCTG
Target: Interferon regulatory factor 5, full length, phosphomimetic (IRF5, Homo sapiens, UniProt Q13568-2, residues 1-514, K96S/S451D/S453D/S456D/S462D)
Sequence | log fluorescence
GACGCACTGGGTATCGGGACGTGCTAG | 0.478 z-score
TTAGATTTCGGGACTGGACTAGTGCTA | 2.64 z-score
GACGCACTGCTACTGCTGACGTGCTAG | -0.329 z-score
GACGGGTTCGGGACTGGGGACGTGCTA | -0.623 z-score
TCATGAATGCCCTTCCATACTGTGCTA | -0.0625 z-score
TTAGGACTGGACTTTCGATTAGTGCTA | 8.56 z-score
TCATTTCTCTTTCACTGACTGTGCTAG | 5.73 z-score
TTAGGTTTCGACAATCGGTTAGTGCTA | 6.55 z-score
GACGAACTAGGGTATCGAGACGTGCTA | 0.0124 z-score
ATAGAACTGGGGTTTCGATTAGTGCTA | 5.74 z-score
TTAGAACTGGGTTTCGATTAGTGCTAG | 7.6 z-score
TCATCTTTTTTTCTTTTACTGTGCTAG | 1.79 z-score
GGCGGACTGCTTCTCCTGACGTGCTAG | -0.715 z-score
TCATACCTCATCTTCCTCACTGTGCTA | 0.396 z-score
TTAGGTTTCGGGTTTGGGTTAGTGCTA | 7.74 z-score
GACGATTTCAGTCTCGAGAAGTGCTAG | 1.59 z-score
GACGATTTCGGGATTCGAGACGTGCTA | 2.55 z-score
GACGTTATCGACACTGGGGACGTGCTA | 1.47 z-score
CAAACACTAGTTTTCATTTTGTGCTAG | 1.82 z-score

Series 4 — technique: EMSA with sequencing; molecule type: double-stranded DNA, one strand shown; medium: in vitro; tested at: 10 and 20 nM; relative to: negative control set to 0; direction: higher = stronger binding
Target: Hepatocyte nuclear factor 3-alpha (Foxa1, Mus musculus, UniProt P35582, residues 1-468, full length assumed)
Notes: whole designed probe, mean of two concentrations, ends assumed
All sequences stand within: GTGAGCGGTGCCCATTGATGGGGAAC … TTTCACTGGGATCGTGGGGAC
Residues (chain): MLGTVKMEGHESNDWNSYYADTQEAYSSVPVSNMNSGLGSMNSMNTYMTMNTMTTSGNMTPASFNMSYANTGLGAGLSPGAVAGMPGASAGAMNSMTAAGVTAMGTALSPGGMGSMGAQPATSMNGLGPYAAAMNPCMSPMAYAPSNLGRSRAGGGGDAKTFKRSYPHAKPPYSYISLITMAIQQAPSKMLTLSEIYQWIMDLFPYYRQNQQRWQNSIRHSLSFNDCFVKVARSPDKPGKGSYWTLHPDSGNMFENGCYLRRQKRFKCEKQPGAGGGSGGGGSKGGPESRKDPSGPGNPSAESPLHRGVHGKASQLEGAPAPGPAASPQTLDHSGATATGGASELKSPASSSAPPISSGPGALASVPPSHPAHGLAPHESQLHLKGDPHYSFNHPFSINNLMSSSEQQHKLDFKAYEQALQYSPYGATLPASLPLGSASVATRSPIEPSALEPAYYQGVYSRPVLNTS
Sequence | normalised bound fraction
GCATAATAAATTGAGAAAAAAATACTCAATACACTAACTGTCCTTGTCTCTAGTTTGCTCAATTGTGTTATTTCCTGCAGGTATTTAAACAAAGTAAATAGCACTATTTGCCAAGGAGCAATGTAAAAAGTTTCCTGACAAGATTCAACAAGGTTTGTCCAGACGATGAGCAAACACAGCTTGCTCAGGCACA | 0.417 ratio
TAATAATAATAGATCCTTATTATATTTATGGAAATCTATACTAATACTTAATATGGCCTTCTTTTCTTTGGTTTTTATAGCTGGGAAACTAAGTAATCTTGAGAAACTTATCATGAGAAACTTCTCATGTCAGCCTCACTCATATACTACCCCTTCAACTTGCTGTAGAGTGTCAAAGATTAAAATCTCACTC | -0.0528 ratio
TAGGCTTCTCGAGTAGAGAAACAAATGACAAATGGCTAAAATGGGTCACCACACACAAATCATGGTTTCATTATAGCATATTTCAAATGTTCTAAATTGCTCACAATTCTACTACTTCCACTAGACACTAATCTTTTCCAAACAAGGCCTTTTTTGTTACTAATGAATCCCTCTTCCTTTCCCCATTGATCAC | -0.0304 ratio
ATCTTCCCCCTCTTCCTTGCCCCACCAGCTCACCTTCCCGGGTTATTTGCAGATAGGAAAATAAATAAAGCCGGCATTCGTTAACGCAGTTCTGGCGCAAACTGCTGTTTGCTCTGGATGAATCATGGTCCTTTGGCGAGGCGTGGCTCCGGGAGAGCAAAGCACCGTGTCAGGGCCATGATCCGGGGTGGCC | 0.35 ratio
ATCTTCCCCCTCTTCCTTGCCCCACCAGCTCACCTACGGGGGTTATTTGCAGATAGGAAAATAAATAAAGCCGGCATTCGTTAACGCAGTTCTGGCGCAAACTGCTGTTTGCTCTGCATCTAACATGGTCCTTACGCGACGCCAGGCTCCGGGAGAGCAAAGCACCGTGTCAGGCGCATGATCCGGGCTCGCC | 0.355 ratio
CACAAAGCAACTAGACAAATATTGATTTTGTAGTTACTGTAAAGGATTGAACAAAAATATGAAGAGCAGAGTTTCTACTCAAATGTGATCAAAGTCATCTCTGAGGATCTCACGAGATTAAAACAATGCTACTAACCTGGATAAGGTGGCATCCCCCGAAAGACTATTTTCTTACCCTTTTTTGTTTGTTTGA | 0.394 ratio
TTCATCTTTCTGACATGGTTTTCCCATGTATGGAGATCTTGGGGCCCACCTGAAGGAGTTTTTTGAAGTGTTGACTGTGACACTATGGGCTTCATGTTTACTTTGGGATCTGGTGGGAAGTTCAAGTGCTATTAATTTTTCCTTGGTCTGTTTTATGCTTTGTAATGGCTTTCTGTGTGTTTTTTGGGAGTTA | 0.426 ratio
TCTTTCACTCAAGTGGTATATCCCACAGCCCTAAAGAAGCAAGGGAAATAAGAATTAGAACTAGACATCCCAGGAGACAAAGAATTCAACAAAGCAATCTCACTTCCTGCTTAACCAATCCCTTCACAAATTACAGAAAATCTCTCTGGCTCAGGCCGGGCAGTGAGTTCATTTATTTCAACAAAATCAAAGA | 0.00616 ratio
